Experimental data gathered from unrelated publications.
UniProt O75608, sequence (whole entry, looked up): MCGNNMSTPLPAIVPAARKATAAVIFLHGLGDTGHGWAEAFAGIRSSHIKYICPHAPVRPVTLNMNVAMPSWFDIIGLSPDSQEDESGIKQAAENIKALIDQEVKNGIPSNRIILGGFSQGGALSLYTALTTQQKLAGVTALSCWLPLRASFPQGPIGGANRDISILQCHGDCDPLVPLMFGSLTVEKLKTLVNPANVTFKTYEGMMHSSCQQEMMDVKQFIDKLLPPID
UniProt P29376, sequence (whole entry, looked up): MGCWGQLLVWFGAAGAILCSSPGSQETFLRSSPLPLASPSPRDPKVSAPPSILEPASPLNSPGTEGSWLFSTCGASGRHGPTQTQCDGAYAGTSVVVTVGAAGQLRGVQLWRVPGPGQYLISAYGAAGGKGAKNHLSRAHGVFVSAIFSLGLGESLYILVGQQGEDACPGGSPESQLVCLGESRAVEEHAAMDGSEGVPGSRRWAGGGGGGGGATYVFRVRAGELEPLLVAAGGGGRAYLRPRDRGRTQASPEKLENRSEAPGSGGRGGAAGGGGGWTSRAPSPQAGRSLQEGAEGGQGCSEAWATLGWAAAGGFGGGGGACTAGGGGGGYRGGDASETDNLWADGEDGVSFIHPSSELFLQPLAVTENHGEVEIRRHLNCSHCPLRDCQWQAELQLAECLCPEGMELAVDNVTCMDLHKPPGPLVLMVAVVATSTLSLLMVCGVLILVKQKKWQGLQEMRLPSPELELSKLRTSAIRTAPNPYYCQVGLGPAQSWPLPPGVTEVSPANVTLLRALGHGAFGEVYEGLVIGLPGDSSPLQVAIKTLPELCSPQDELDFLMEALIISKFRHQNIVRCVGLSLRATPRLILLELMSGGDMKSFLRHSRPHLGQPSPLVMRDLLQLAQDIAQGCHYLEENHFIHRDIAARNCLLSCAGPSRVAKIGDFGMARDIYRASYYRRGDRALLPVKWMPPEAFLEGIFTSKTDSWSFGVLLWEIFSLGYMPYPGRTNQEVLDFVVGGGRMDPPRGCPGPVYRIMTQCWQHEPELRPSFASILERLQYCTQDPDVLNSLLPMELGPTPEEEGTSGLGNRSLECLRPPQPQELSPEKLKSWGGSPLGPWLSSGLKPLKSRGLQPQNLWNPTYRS
UniProt Q96L34, sequence (whole entry, looked up): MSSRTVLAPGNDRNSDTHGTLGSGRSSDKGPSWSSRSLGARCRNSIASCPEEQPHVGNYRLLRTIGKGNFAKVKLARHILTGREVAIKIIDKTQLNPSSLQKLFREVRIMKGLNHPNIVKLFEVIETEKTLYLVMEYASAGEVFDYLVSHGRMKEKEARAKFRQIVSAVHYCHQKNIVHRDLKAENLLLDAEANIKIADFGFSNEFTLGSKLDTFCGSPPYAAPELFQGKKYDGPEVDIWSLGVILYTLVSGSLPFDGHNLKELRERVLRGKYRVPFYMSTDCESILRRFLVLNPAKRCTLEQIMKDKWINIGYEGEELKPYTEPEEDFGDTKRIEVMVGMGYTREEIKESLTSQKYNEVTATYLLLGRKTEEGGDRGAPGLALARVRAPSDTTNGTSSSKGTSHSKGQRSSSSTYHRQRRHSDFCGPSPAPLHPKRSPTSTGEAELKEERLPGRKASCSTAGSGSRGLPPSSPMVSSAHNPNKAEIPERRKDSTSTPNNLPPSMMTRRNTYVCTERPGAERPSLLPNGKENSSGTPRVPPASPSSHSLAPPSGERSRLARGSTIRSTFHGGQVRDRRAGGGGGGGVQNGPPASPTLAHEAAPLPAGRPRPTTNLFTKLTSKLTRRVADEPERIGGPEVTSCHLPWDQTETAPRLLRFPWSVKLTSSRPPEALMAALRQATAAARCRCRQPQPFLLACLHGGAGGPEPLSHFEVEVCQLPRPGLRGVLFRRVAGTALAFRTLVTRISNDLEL
UniProt P34995, sequence (whole entry, looked up): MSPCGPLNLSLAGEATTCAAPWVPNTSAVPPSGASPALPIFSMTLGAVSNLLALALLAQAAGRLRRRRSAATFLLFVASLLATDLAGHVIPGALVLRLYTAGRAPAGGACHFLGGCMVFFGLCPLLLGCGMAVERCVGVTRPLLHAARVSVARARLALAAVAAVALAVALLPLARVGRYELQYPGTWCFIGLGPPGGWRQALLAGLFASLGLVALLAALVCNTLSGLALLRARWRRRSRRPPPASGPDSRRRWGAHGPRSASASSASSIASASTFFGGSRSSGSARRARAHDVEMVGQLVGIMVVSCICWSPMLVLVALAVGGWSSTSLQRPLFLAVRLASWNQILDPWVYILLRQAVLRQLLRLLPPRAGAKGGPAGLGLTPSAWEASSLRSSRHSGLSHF
UniProt Q9HC35, sequence (whole entry, looked up): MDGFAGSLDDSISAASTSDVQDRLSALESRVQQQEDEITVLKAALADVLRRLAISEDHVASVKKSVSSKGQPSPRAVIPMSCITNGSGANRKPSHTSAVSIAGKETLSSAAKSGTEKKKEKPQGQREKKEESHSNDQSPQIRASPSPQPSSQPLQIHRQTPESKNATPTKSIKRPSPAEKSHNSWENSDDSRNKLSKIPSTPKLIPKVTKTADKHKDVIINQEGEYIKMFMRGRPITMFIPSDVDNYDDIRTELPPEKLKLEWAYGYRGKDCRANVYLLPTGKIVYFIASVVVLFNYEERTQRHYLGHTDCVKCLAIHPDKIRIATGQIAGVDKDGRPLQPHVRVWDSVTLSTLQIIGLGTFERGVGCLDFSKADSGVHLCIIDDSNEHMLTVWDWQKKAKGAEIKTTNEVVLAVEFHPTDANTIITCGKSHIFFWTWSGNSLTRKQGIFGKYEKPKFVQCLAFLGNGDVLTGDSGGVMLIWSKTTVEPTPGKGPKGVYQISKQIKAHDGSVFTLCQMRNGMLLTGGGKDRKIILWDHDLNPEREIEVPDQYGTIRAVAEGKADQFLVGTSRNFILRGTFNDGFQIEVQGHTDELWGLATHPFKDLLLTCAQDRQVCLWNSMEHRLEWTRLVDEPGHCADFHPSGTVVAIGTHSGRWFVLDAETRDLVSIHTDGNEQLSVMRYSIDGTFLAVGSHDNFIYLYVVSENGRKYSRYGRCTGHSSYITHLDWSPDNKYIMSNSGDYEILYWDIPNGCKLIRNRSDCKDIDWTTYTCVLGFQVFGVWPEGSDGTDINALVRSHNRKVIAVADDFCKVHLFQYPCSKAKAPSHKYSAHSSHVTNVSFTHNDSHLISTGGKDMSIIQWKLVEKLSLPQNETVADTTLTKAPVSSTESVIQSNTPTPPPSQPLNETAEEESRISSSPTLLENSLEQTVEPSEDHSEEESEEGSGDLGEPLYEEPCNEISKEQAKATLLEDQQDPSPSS
UniProt Q9NYM4, sequence (whole entry, looked up): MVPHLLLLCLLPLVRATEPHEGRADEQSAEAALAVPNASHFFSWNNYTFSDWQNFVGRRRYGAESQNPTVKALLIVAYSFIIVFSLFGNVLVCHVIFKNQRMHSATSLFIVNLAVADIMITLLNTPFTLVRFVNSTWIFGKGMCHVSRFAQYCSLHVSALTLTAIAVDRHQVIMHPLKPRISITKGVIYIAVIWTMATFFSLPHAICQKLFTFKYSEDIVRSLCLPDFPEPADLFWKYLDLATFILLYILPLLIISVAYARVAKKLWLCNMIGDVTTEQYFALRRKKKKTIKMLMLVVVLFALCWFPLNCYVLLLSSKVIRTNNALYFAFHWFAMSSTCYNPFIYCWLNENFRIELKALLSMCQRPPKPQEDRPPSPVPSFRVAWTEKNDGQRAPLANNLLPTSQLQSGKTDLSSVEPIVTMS
UniProt P11473, sequence (whole entry, looked up): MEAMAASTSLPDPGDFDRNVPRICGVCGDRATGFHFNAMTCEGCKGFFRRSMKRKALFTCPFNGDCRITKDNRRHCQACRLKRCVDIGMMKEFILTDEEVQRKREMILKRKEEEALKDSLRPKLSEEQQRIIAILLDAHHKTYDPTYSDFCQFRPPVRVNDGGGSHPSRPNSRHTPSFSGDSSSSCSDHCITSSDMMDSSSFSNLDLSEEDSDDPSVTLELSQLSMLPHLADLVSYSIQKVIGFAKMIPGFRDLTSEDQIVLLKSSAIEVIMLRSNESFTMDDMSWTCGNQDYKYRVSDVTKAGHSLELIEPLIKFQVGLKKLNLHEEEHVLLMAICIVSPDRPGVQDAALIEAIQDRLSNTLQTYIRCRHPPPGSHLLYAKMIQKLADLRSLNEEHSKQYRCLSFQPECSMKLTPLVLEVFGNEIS
UniProt P46094, sequence (whole entry, looked up): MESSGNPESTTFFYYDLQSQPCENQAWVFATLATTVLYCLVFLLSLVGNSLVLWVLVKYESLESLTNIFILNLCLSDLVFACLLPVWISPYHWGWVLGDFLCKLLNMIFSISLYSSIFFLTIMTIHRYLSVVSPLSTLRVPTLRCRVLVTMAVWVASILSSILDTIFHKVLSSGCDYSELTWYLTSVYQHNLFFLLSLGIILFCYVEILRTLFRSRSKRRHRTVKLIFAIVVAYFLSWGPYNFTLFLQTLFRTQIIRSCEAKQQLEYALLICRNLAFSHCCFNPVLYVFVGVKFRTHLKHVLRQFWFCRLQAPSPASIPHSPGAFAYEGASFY

| SMILES | target | assay | system | conditions | how to read | endpoint | result |
| --- | --- | --- | --- | --- | --- | --- | --- |
| O=C(Nc1cnccc1Cl)N1CCN(Cc2ccc3c(c2)OC(F)(F)O3)CC1 | Prostaglandin E2 receptor EP1 subtype (PTGER1, Homo sapiens, UniProt P34995) | binding, refers to: EP1 | – | 50 µM, human, added: [3H]prostaglandin E2 | – | inhibition | 10% |
| C[C@H]1CN(c2n[nH]c3nc(N[C@H]4CC[C@H](NS(=O)(=O)CCC(F)(F)F)CC4)ncc23)CCO1 | Echinoderm microtubule-associated protein-like 4 (Homo sapiens, UniProt Q9HC35) | Kinobeads competition, refers to: EML4 | – | 20 µM, unit not given | baseline: vehicle | remaining binding | 1.1 |
| Oc1ccc2c3c1O[C@H]1[C@@H](O)CC[C@@]4(O)[C@@H](C2)N(CC2CCC2)CC[C@]314 | G-protein coupled receptor 83 (GPR83, Homo sapiens, UniProt Q9NYM4) | β-arrestin recruitment, TANGO luminescence, refers to: GPR83 | – | concentration not given | baseline: basal luminescence | log2 fold change | -0.011 |
| [2H]c1c([2H])c([C@]2([2H])CCCN2C(=O)C(C)(C)Oc2ccc3cn[nH]c3c2)c([2H])c([2H])c1C([2H])([2H])[2H] | MAP/microtubule affinity-regulating kinase 4 (MARK4, Homo sapiens, UniProt Q96L34) | KINOMEscan | – | 1 µM | baseline: DMSO control | remaining binding | 75% |
| O=C(Nc1cccnn1)N1CCC(=Cc2cccc(Oc3ccc(C(F)(F)F)cn3)c2)CC1 | Vitamin D3 receptor (VDR, Homo sapiens, UniProt P11473) | radioligand binding, inhibitor | – | 10 µM, human, added: [3H]1alpha,25-dihydroxyvitamin D3 | – | inhibition | -1% |
| COc1ccc(N2C(=O)N(c3c(C)cccc3Cl)Cc3cnc(Nc4ccc(C5CCN(C)CC5)cc4OC)nc32)nc1 | Leukocyte tyrosine kinase receptor (LTK, Homo sapiens, UniProt P29376) | kinase activity | – | 0.5 µM | – | inhibition | 58% |
| O=C(c1ccc(Cl)cc1)N1CCN2C(=O)N(OC(=O)N3CCOc4ccccc43)C(=O)C2C1 (centres unmarked) | Acyl-protein thioesterase 1 (Homo sapiens, UniProt O75608) | enzyme activity, inhibitor, MS-based ABPP | SW-620 conditioned medium | 10 µM, 1 h, 37 °C | baseline: compound over DMSO, lower = stronger inhibition | median ratio | 1.15 |
| CN1CCN(c2cc(-c3ccncc3)c(-c3ccc4ccccc4c3)nn2)CC1 | XCR1 (Homo sapiens, UniProt P46094) | antagonist, FLIPR | – | 10 µM | – | inhibition | 35.3% |

A few entries again:
| SMILES | target | assay | system | conditions | how to read | endpoint | result |
| --- | --- | --- | --- | --- | --- | --- | --- |
| COc1ccc(N2C(=O)N(c3c(C)cccc3Cl)Cc3cnc(Nc4ccc(C5CCN(C)CC5)cc4OC)nc32)nc1 | Leukocyte tyrosine kinase receptor (LTK, Homo sapiens, UniProt P29376) | kinase activity | – | 0.5 µM | – | inhibition | 58% |
